Earlier results, collected from citations in different studies.
Numbers after ± are the reported error. Ends that are not written are not given here.
Chain of UniProt P35968 (whole entry, looked up): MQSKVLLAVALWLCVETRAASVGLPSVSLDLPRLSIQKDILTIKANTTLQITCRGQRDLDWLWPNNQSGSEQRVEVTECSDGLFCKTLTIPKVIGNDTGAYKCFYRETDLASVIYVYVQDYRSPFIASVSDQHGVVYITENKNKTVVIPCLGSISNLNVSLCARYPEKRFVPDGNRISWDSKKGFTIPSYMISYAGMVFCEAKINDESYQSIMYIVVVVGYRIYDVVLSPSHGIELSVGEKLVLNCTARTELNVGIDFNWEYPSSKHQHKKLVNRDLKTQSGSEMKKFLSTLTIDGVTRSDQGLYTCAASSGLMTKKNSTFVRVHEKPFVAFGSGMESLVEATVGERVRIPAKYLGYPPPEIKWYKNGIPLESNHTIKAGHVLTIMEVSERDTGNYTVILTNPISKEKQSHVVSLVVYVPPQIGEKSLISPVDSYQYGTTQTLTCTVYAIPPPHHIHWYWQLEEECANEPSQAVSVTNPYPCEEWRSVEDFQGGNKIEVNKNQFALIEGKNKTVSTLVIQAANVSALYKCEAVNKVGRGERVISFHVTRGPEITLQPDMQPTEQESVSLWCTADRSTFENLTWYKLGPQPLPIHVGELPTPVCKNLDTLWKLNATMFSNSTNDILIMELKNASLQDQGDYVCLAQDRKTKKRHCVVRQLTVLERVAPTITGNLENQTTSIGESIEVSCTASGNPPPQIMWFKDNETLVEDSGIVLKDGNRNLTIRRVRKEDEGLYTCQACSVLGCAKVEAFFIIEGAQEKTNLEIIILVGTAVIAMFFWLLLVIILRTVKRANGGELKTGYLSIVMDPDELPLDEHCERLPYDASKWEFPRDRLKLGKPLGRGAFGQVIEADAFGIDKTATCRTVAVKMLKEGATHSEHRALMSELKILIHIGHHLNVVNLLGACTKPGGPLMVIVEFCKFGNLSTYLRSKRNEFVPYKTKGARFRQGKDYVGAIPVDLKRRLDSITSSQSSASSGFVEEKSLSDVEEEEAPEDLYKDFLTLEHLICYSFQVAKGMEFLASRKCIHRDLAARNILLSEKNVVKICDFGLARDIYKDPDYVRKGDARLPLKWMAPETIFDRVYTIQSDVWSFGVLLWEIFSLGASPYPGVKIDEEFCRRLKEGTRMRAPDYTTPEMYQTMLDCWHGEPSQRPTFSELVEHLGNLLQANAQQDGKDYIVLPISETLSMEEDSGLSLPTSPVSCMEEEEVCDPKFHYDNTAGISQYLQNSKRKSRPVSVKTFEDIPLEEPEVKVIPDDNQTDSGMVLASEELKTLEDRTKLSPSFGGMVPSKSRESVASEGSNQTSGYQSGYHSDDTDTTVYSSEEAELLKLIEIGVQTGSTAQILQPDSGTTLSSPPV
Chain of UniProt O35627 (whole entry, unmodified, looked up): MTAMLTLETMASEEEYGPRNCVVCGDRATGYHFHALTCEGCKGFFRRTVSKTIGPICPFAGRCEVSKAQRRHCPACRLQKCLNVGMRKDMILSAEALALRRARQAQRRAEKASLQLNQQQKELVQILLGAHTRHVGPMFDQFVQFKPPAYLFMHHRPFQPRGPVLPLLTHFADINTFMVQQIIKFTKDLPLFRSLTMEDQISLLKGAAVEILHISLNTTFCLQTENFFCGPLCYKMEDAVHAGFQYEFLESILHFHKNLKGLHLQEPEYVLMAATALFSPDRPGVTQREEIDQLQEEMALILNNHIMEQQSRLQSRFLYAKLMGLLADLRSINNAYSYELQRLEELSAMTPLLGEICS

| Molecule | tested on | assay | test system | conditions | measurement | value |
| --- | --- | --- | --- | --- | --- | --- |
| CN1CCN(C2=Nc3ccccc3Oc3ccc(Cl)cc32)CC1 | human SLACK (KCNT1) | Tl+ flux, activator | HEK293 expressing human SLACK | – | EC50 | 20700 nM |
| CC1=C(C(=O)OC2CCCCC2)C(c2ccc([N+](=O)[O-])cc2)C2=C(CC(C)(C)CC2=O)N1 (centres unmarked) | Notch | Notch trafficking inhibition | – | – | EC50 | 2300 nM |
| CO[C@@H]1[C@@H]2OP(=O)(O)OC[C@H]2O[C@H]1n1c(Sc2ccc(Cl)cc2)nc2c(N)ncnc21 | PDE1A | cyclic nucleotide hydrolysis, substrate or inhibitor, isothermal titration calorimetry | – | – | Km or Ki | 50500 nM |
| CCc1cnc(N2CCC(c3nc(COc4ccc(-n5cnnn5)cc4)cs3)CC2)nc1 | GPR119 | cAMP accumulation, agonist | HEK293 transfected with GPR119 | – | EC50 | 8.33 nM |
| CCCCCCCCNc1cc(=O)[nH]c(=O)[nH]1 | human GPR84-Gαi fusion protein | agonist | Sf9 membranes | – | EC50 | 512 nM |
| CCCC/C=C\CCCCCCCC=O | Heliothis virescens OR6 with Orco | ion current, agonist, two-electrode voltage clamp | Xenopus oocytes | holding potential -80 mV | EC50 | 6200 nM |
| COC(=O)[C@]1(c2ccccc2)N=C(c2ccccc2)N(Cc2ccccc2)[C@@H]1c1ccccc1 | NF-κB transcription | reporter gene, inhibitor, luciferase reporter | – | – | EC50 | 7500 nM |
| C[C@]12CC[C@@H]3c4ccc(O)cc4CC[C@H]3[C@@H]1CC1(CCCC1)C2=O | oestrogen receptor beta | binding, competition binding | – | – | EC50 | 166 nM |
| NC(=O)[C@]1(c2ccccc2)N=C(c2ccccc2)N(Cc2ccccc2)[C@@H]1c1ccccc1 | NF-κB transcription | reporter gene, inhibitor, luciferase reporter | – | – | EC50 | > 20000 nM |
| C[C@]12CC=C3c4ccc(O)cc4CC[C@H]3[C@@H]1CC[C@@H]2O | oestrogen receptor alpha | binding, competition binding | – | – | EC50 | 3.98 nM |
| Nc1ncnc2c1nc(Br)n2[C@@H]1O[C@@H]2COP(=O)(O)O[C@H]2[C@H]1O | PDE1C | cyclic nucleotide hydrolysis, substrate or inhibitor, isothermal titration calorimetry | – | – | Km or Ki | 18000 nM |
| COc1ccc(-c2cccc(C(=O)N(C)C)c2)cc1S(=O)(=O)Nc1cccc(NCCNC(=O)c2ccccc2N(C)C)c1 | orexin receptor 2 | luciferase reporter gene, agonist | CHO cells | – | EC50 | 28 nM |
| CC[C@H](C)[C@H](NC(=O)[C@H](CCCCN)NC(=O)[C@H](Cc1c[nH]cn1)NC(=O)[C@@H](N)CCCNC(=N)N)C(=O)N[C@@H](CC(C)C)C(=O)N[C@@H](Cc1c[nH]cn1)C(=O)N[C@@H](CCCNC(=N)N)C(=O)N[C@@H](CC(C)C)C(=O)N[C@@H](CC(C)C)C(=O)N[C@@H](CCC(N)=O)C(=O)N[C@@H](CCC(=O)O)C(=O)NCC(=O)N[C@@H](CO)C(=O)O | Nuclear receptor subfamily 1 group I member 3, with RXR (Mus musculus, UniProt O35627) | binding, isothermal titration calorimetry | – | pH 7.2, 25°C, together with: TCPOBOP, fourfold excess | ΔG | -8.5 kcal/mol |
| CC(=O)c1cccc(N[C@H]2[C@H](N)[C@@](NC(=O)N(C)C)([C@H](C)O)[C@@](C)(O)[C@@]2(O)COC(=O)c2c(C)cccc2O)c1 | M14 | – | – | – | GI50 | 120 nM |
| CCC(C)c1c(O)ccc2c1CC[C@@H]1[C@@H]2CC[C@]2(C)C(=O)CC[C@@H]12 (some centres unmarked) | oestrogen receptor alpha | binding, competition binding | – | – | EC50 | > 10000 nM |
| GSSFLSPEHQRVQQRKESKKPPAKLQPR (ghrelin; ends and bridges not checked; sequence looked up) | GHSR1a | receptor activation, agonist | peptide | – | EC50 | 1.6 nM |
| Nc1nc(N)c2c(n1)[nH]c1cccc(Sc3ccccc3)c12 | Vascular endothelial growth factor receptor 2 (KDR, Homo sapiens, UniProt P35968) | kinase activity, inhibitor | – | – | IC50 | 22600 ± 4500 nM |

For quick reference, copied from above:
| Molecule | tested on | assay | test system | conditions | measurement | value |
| --- | --- | --- | --- | --- | --- | --- |
| CC1=C(C(=O)OC2CCCCC2)C(c2ccc([N+](=O)[O-])cc2)C2=C(CC(C)(C)CC2=O)N1 (centres unmarked) | Notch | Notch trafficking inhibition | – | – | EC50 | 2300 nM |
| CO[C@@H]1[C@@H]2OP(=O)(O)OC[C@H]2O[C@H]1n1c(Sc2ccc(Cl)cc2)nc2c(N)ncnc21 | PDE1A | cyclic nucleotide hydrolysis, substrate or inhibitor, isothermal titration calorimetry | – | – | Km or Ki | 50500 nM |
